# Results collected from several papers.
# Each numbered part is a random draw from the data of one study; scales do not carry over between parts.

# Series 1
# Target: RING finger protein unkempt homolog, zinc fingers 1-6, GST-SBP tag (UNK, Homo sapiens, UniProt Q9C0B0, residues 30-357)
# Sequence of UniProt Q9C0B0 (30-357, looked up): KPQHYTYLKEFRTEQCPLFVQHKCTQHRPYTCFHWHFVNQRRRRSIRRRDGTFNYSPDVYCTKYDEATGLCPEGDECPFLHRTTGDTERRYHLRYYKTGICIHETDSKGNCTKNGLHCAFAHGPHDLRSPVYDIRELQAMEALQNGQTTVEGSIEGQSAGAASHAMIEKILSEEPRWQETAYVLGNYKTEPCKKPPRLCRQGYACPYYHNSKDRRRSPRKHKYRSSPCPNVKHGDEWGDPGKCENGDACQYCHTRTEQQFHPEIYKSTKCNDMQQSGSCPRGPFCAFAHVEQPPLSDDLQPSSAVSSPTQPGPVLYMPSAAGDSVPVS
# Method: RNA Bind-n-Seq
# Molecule type: RNA
# Matrix: in vitro
# Tested at: not given
# Setting: RNA with constant flanks, human and mouse sites, ends assumed
# Baseline: input RNA pool
# Reading: higher = stronger binding
# All sequences stand within: GGGAGUUCUACAGUCCGACGAUC … CAACAGAGGAUUGAGCAUCA
Sequence,bound/input enrichment
GAUCCAGGCAGUAAAGAUCCAGAAGAAGAUUACCCCAAAUUUGGACUUUUGGAUCAGGACCUUAGUAACAUUGGUCCUGCUUAUGACAACCAAAAACAGAGCAGUGCUGUGUCUACUAGU,0.216 ratio
CAUUAUGACCGGGCUCAUAUUGCUCAACUGUGUGAAAAGGCUGGCCUACUGCAGCGUGCAUUAGAACAUUUCACUGAUUUAUAUGAUAUAAAACGUGCAGUGGUUCACACCCAUCUUCUU,0.246 ratio
GAAAGAAAUGAAUGGAAAAAAAGGAGUGUCCAUCCUUUCCAUCUAUAAGUAUGUCAGUUCUAUAUAUAGAUACGAUGUUCAACGGAACAGGAGUCUUUUGAAACGGAUGCUGAAAUGUUU,0.183 ratio
ACUGGAAAAAAAAAUCGCCACCUGUUCUUACACCAGUAUUUGGUUCAAGACACCAAAUGUCUUCAGCCCAUGGCUGAAGAACAACAGAAGAGAGUCAGGAUAAAAAAUACAUACUGUGGU,0.192 ratio
GUUGUAUAAAUUUUAUUUUCAUAUUAAGUCUCAACUAUUGUAUAUCAGACUAUGUGCCCAUCAAAUCUCUUAGAAUUUGCUAUUGAAAAAAAUUUUGCUAUUGGUUUAGAAUAUUGAGUG,20.5 ratio
UAGAUUUGAAUACAAAAUCUGAUACAAUAUGUUAAAGAAUUAAGAACCUGAAGAUGAAGAUUUAGAGCAUAUUUACCUGGAUUUUACUUAUUUGCUAGCAAAAUUCCCCCUUGUCACAGA,1.39 ratio
AGUGCUAAAGAUGAUUCUCCUAAGGAGUACACUGACCUAGAAGUAUCCAACAAAAGUGAAAUUGCUAAUGUCCAGAGCGGGGCCAAUUCGUUGCCUUGCUCAGAAUUGCCCUGUGACCUU,0.22 ratio
CAGCAUCUGCAGAUCUUCGAGGAGGGUUUGACUGGAGUCUGCAUUUCAAGUGGGAGCAGAUCCCGCUGGAGCAGAAGAUGACCCGGACUGACCCCACUAAACCCAUCAGGACACCUGUUA,0.144 ratio

# Series 2
# Target: Interferon regulatory factor 5, full length, phosphomimetic (IRF5, Homo sapiens, UniProt Q13568-2, residues 1-514, S451D/S453D/S456D/S462D)
# Method: protein-binding microarray
# Molecule type: double-stranded DNA, one strand shown
# Matrix: in vitro
# Tested at: 940 nM top
# Setting: 60-bp whole probe
# Together with: salmon DNA 0.4 mg/ml
# Baseline: random background probes
# Reading: higher = stronger binding
# All sequences stand within: GCCTAGCAC … GTCTTGATTCGCTTGACGCTGCTG
Sequence,fitted relative affinity
TTAGGTATCCTACTGATTTAGTGCTAG,-0.222 z-score
TAAGGTATCGGACTGGGTTAGTGCTAG,1.94 z-score
GACGGTCTCCTACTTCTGACGTGCTAG,0.101 z-score
GACGATCTCCTTCTCCTGACGTGCTAG,0.301 z-score
TAGAGTAGCTTTCTGAGGGCGTGCTAG,-0.304 z-score
TTAGATATCATTCTCGATTAGTGCTAG,2.73 z-score
TCAGTTCTGGGAAATATTACTGTGCTA,0.138 z-score
TCAGGACTGCTTATCCTTTAGTGCTAG,0.0776 z-score
GACGGTGCCGGTTTCGGGACGTGCTAG,3.38 z-score
TTTTTTTTATCAATCATTTTGTGCTAG,1.22 z-score
TGGAGTCTCTGTTCTTTTCAGTGCTAG,2.34 z-score
TTTGGTTTCGGTATCGGTTAGTGCTAG,18.1 z-score
TTAAGTTTCCTTATCCTTTAGTGCTAG,2.31 z-score
GACTGTATCGGTATCGGGACGTGCTAG,4.79 z-score
TTAGGTTTCGTTTCCCTTTAGTGCTAG,10.8 z-score
GACGGTATCGTCTTTCGGGACGTGCTA,3.13 z-score
GCCGAACTGAGTCTCGAGACGTGCTAG,1.1 z-score
CTAGTTTTTACTTTCTGAATGTGCTAG,1.5 z-score
AGTCATCTCCAAAGTCAGCCAGTGCTA,0.15 z-score

# Series 3
# Target: Histone acetyltransferase KAT6A, winged helix 1, GST fusion (KAT6A, Homo sapiens, UniProt Q92794, residues 1-85)
# Method: protein binding microarray
# Molecule type: double-stranded DNA, one strand shown
# Matrix: in vitro
# Tested at: not given
# Setting: 8-mer, flanks averaged, mean of 2 arrays, mostly near background
# Baseline: not given
# Reading: higher = stronger binding
# Target sequence (chain): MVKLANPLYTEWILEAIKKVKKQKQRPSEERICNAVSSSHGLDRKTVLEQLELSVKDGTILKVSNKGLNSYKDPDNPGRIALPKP
Sequence,E-score
CCAGGAAC,-0.142
AGCCCCAG,-0.209
AGAAGCCT,-0.0878
AAGAACAA,-0.152
CGTTGAGC,0.112
TCACCAAA,-0.101
CTCCTAGA,-0.134
TATTGTGA,-0.14
TAACCCAA,-0.207
GTGCAGTA,-0.0548
CCACTTCC,-0.176
TCGTTGAA,-0.184
GTCCGATA,0.141
CGTGTCTC,0.0602
CACATTAA,-0.245
CTGAAAAA,-0.209
GCATATAA,-0.049
ATTCGCAC,0.108
GCGTTTGA,0.06
AAATCATT,-0.167
AGCGACAC,-0.0648
AGACAACA,-0.211
AGGGTCTA,-0.0462
CAGTTTGC,0.0567
ACCTCAAA,-0.106

# Series 4
# Target: RNA binding protein fox-1 homolog 2, RRM domain, GST-SBP tag (RBFOX2, Homo sapiens, UniProt O43251-10, residues 100-194)
# Method: RNA Bind-n-Seq
# Molecule type: RNA
# Matrix: in vitro
# Tested at: 365 nM
# Setting: natural RNA segment, single round, ends assumed
# Baseline: no-protein control
# Reading: higher = stronger binding
# All sequences stand within: GGGAGUUCUACAGUCCGACGAUC … UGGAAUUCUCGGGUGCCAA
# Residues (chain): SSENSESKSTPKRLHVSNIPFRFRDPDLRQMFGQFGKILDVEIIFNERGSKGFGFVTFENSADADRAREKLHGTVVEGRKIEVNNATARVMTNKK
Sequence,RBNS enrichment (R)
UCAGUUUGCUUUAGCCAUGACUGCCUGAGAAGUCUUAACCUCUGUGCCUCUCUGUAUCCUAUGGAAAGCAGCCCCAUGCUUUCUGCUCCCCUCUGCACUCUCUCACAGGG,0.713
UUUUAAACCAUUUCUUUUGUUUAAAUAAAUAAAUAAGUAAAUAAAGCUAGUUCUAUUGAAAUGCAAACCUUUUUGUACCAUCUAUUCUUUAGUAGUUUAAUUAUUGGGAA,0.503
AAUUCCAACCUCUAAGUCGGGGAAAGGUGACAGGUUUCCUGGUGCUGGUGUGCACAGGGGCAGGCAGGUCAGCUGGCCUGGGGAAGAGCAUUGUGGCUCCUAGUGCAGCC,0.588
AGGGGCAUUGAGAAAAAAAAAAUGAAGGCAUUUUACAGUCUCUAAACAUCUUUAAGUGCCAUGAGUAAUUUUUCCUGACUCUGUUUCAUAGCUUUGUAAGAAUUCUGUGU,0.417
UCAGCAUUCCCUUGAUAUCAGUCCCCUUCACUGCAGAGCCUUGCCUUUCCCCUCUGCCUGUUUCCUUUUCCUCUCCCAACCCUCUGGUUGGUGAUUCAACUUGGGCUCCA,7.98
GACUGCGCCCUGAGGACGUGGACGCUGUUAGGAACCAAACUCUGUCCUGAGCUUCCUCUAGCUCACUCUAGAAGUAAUGGUCUAAUCAAAGGUCGUCUGUCUGCUUUUGA,0.262
UCCCCUCUCUUGUCUCCAUUAUUUUAAUUGCUUUUUCUGGCAGCACGGUGGGGACAGGGCAGAUUUAUGAGAAAUAUCAAUUGCCCCUCUCUUCUGGACCAAUUCCUUAA,0.453
AGAGAUGGCUUGAGGGUCAGGAGUACAAAGCCUUCCUGUAGAUGGCCAGAGUUUGGAUUCUAGUGCUCGUGCUGAGUGGCACACACUCAAACAUUACUCUCUCUUGGGAG,0.387
